Experimental data of several laboratories.
Lines come from different studies, so protocols differ. “And” joins repeats or separate records; there may be more than shown. ± gives the spread as reported.
Chain of UniProt Q9UM07 (whole entry, looked up): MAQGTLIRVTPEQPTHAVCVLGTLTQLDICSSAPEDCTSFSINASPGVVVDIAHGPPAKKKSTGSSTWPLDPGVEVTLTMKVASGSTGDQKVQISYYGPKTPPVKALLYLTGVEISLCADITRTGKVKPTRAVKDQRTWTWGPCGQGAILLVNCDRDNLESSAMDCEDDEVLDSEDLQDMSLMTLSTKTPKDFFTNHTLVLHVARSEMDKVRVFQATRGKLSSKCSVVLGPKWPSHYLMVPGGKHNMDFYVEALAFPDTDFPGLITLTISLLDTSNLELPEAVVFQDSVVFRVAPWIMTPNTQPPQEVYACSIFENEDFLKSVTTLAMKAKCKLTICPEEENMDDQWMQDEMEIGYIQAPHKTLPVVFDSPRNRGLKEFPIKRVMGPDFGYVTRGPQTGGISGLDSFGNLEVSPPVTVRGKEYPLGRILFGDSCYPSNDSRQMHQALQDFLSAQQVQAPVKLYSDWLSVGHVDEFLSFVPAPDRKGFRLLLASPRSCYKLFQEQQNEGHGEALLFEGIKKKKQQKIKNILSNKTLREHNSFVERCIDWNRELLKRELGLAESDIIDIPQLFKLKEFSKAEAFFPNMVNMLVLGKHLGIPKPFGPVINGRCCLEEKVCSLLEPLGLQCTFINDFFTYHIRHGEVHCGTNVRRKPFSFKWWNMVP
Chain of UniProt O60285 (whole entry, looked up): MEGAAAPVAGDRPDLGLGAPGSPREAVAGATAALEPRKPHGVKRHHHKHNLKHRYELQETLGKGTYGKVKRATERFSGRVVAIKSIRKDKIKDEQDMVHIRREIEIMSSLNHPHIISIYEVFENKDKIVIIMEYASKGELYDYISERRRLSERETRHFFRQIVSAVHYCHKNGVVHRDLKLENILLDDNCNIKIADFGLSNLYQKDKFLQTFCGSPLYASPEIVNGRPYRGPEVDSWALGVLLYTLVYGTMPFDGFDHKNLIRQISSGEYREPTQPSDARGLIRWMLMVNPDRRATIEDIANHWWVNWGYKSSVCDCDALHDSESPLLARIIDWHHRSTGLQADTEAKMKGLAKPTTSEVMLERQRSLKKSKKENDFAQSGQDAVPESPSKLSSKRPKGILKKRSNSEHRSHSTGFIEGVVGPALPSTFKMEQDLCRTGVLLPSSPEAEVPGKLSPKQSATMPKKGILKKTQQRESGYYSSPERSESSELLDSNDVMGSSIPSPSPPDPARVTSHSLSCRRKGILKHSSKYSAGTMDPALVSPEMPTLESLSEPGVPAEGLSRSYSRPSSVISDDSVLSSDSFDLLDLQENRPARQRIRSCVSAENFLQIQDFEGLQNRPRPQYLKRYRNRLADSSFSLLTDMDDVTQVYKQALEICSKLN
Chain of UniProt Q13555 (whole entry, looked up): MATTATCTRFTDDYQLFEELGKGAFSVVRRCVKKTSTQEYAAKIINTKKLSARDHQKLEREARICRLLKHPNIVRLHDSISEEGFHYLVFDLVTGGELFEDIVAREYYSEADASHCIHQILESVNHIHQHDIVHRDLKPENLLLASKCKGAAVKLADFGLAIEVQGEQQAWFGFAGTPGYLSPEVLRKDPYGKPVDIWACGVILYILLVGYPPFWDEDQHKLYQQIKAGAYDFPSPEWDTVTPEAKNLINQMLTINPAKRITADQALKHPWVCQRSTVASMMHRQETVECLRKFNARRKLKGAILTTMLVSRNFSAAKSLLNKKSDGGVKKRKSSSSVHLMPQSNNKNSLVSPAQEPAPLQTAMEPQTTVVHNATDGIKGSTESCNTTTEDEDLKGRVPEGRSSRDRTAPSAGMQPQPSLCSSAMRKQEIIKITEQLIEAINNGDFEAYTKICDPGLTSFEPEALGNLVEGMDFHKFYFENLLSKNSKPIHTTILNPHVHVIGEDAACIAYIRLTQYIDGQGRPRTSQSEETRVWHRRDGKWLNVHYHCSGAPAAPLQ
Chain of UniProt P53634 (whole entry, looked up): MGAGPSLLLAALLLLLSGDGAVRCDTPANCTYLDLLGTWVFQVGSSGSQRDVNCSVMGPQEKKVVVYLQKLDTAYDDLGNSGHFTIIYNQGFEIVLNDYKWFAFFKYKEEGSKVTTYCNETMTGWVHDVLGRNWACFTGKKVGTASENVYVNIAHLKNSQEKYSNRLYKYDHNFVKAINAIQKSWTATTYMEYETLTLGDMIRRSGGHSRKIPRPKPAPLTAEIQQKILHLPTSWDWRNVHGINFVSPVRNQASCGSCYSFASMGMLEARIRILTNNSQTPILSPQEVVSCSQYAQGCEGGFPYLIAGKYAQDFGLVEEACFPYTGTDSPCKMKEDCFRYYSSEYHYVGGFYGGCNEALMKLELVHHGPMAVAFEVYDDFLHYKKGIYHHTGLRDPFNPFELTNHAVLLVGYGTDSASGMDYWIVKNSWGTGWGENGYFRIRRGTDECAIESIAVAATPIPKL
Chain of UniProt P0A988 (whole entry, unmodified, looked up): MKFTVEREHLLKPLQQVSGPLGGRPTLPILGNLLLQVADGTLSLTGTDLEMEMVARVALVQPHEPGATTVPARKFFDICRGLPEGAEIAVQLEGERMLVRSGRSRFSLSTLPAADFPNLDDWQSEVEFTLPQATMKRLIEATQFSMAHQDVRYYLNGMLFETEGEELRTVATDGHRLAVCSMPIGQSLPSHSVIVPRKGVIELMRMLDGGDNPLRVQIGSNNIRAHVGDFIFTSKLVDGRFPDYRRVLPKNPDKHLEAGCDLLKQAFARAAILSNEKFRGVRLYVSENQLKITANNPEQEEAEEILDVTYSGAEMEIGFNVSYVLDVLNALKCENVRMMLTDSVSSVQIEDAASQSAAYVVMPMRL
Chain of UniProt O42275 (whole entry, looked up): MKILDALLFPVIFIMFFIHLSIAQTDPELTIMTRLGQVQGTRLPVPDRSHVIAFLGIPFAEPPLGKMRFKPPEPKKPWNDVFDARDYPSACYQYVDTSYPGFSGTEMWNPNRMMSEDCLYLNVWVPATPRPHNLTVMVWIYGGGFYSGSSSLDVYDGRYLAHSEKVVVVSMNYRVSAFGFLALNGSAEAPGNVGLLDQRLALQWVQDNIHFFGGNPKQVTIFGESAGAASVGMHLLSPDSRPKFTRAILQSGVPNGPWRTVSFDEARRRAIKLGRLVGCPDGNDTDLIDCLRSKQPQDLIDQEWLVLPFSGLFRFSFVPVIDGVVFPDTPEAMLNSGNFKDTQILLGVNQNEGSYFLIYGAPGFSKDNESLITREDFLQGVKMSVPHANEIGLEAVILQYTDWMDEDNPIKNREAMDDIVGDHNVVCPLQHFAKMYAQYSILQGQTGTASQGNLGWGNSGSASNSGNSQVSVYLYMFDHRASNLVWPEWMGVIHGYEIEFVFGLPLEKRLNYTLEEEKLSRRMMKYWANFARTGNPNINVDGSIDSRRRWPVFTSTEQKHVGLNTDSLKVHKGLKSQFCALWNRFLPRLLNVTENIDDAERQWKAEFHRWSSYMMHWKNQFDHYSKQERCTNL
Chain of UniProt Q02763 (whole entry, unmodified, looked up): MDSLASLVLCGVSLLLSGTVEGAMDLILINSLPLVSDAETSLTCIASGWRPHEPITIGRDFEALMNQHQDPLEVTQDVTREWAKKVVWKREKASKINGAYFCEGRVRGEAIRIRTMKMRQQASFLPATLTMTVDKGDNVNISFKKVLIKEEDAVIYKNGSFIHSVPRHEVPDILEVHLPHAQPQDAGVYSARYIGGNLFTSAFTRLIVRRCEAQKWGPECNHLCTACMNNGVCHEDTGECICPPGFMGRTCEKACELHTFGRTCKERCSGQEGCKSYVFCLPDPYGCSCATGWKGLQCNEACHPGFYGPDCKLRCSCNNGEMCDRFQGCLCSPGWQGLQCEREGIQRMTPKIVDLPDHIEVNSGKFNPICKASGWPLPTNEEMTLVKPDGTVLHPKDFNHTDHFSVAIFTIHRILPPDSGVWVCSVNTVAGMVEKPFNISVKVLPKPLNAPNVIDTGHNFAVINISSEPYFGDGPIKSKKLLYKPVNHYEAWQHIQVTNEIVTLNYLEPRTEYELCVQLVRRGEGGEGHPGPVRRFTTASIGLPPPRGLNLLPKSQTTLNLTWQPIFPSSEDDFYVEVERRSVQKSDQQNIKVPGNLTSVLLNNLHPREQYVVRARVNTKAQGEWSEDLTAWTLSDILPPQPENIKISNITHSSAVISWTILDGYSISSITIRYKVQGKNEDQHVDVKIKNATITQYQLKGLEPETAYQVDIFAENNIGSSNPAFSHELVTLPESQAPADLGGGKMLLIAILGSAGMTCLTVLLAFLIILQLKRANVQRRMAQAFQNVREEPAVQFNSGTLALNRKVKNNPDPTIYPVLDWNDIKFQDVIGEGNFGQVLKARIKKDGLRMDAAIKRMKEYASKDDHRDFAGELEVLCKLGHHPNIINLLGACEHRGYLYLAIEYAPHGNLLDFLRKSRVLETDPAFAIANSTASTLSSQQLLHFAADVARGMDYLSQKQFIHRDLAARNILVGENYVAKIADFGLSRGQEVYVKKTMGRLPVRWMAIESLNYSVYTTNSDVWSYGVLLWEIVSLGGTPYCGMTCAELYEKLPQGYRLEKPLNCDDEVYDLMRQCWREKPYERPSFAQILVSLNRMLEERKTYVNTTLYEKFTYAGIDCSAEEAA
Chain of UniProt P10809 (whole entry, looked up): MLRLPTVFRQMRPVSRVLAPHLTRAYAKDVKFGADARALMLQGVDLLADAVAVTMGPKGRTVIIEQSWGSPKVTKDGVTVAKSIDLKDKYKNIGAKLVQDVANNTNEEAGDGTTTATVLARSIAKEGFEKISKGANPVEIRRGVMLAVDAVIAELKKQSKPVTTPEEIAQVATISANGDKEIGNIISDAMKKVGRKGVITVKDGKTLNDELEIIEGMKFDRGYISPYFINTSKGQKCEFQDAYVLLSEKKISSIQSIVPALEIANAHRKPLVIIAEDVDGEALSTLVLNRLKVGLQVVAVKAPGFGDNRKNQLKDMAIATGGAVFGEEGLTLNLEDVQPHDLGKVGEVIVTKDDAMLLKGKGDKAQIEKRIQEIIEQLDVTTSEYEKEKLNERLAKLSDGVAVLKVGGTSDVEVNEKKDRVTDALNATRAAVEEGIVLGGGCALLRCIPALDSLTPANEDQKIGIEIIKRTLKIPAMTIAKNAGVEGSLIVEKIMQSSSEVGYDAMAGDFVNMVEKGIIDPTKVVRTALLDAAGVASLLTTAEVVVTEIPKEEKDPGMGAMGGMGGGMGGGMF

For `Cc1ccc(N2CC3CCC(C2)N3C)cc1C(=O)N[C@H](C)c1cc(-c2cnn(C)c2)nc2ccccc12`, the remaining activity was 109% (UCHL1 (Homo sapiens, UniProt P09936); enzyme activity; 30 µM, 0.5 h).
`CC(C)C[C@H](NC(=O)[C@H]1O[C@@H]1C(=O)O)C(=O)NCCCCN=C(N)N` has a Hill slope of -1.27 (CTSC (Homo sapiens, UniProt P53634)).
The inhibition of `Cc1sc2c(c1C)C(c1ccc(Cl)cc1)=NC(CC(=O)OC(C)(C)C)c1nnc(C)n1-2` (stereo not drawn) is reported as 61% (ADORA3 (Homo sapiens, UniProt P0DMS8); ligand displacement, radioligand; 1 µM).
`CC[C@H](C)[C@@H]1NC(=O)[C@H](Cc2ccccc2)NC(=O)C[C@H](CC(=O)O)NC(=O)[C@@H](NC(=O)[C@@H](NC(=O)[C@H](CO)NC(=O)[C@@H](N)Cc2ccc(O)cc2)[C@@H](C)O)CSC(=O)[C@H](CCSC)NC1=O` has an EC50 ratio of ~80 fold (agrC (Staphylococcus aureus, UniProt O07911); reporter gene, agonist, β-lactamase reporter; baseline: mutant over native AIP-I).
For `CCOCC1C(c2ccc(Cl)c(Cl)c2)CC2CCC1N2C` (stereo not drawn), the remaining activity was 40% (SLC6A3 (Homo sapiens, UniProt Q01959); dopamine uptake; 0.001 µM, 0.03333 h, added: [3H]dopamine; baseline: no inhibitor).
With `Cc1cc(Oc2nc(N3CC[C@@H](c4ccncc4)C3)ncc2F)[nH]n1` the normalised growth was 10% and 8% (Mycobacterium tuberculosis; OD; H37Rv PurF CRISPRi knockdown; 0.03125 µM, added: anhydrotetracycline low).
For `O=C(O)C(/C=C/c1c(Cl)cccc1Cl)=N\Nc1nc(-c2ccccc2)cs1`, the selectivity index was 9.68 (ache (Electrophorus electricus, UniProt O42275); Ellman; baseline: IC50 BChE over IC50 AChE).
With `CC(=O)N[C@@H](CCC(N)=O)C(=O)N[C@@H](CC1CCCCC1)C(=O)N[C@@H](CNC(=O)CCl)C(=O)N[C@@H](CC(C)C)C(=O)N[C@@H](Cc1ccccc1)C(=O)O` the -TΔS was 2.5 kcal/mol (Beta sliding clamp (Escherichia coli, UniProt P0A988); binding, isothermal titration calorimetry; 25 °C).
`O=C(Cc1ccc(Cl)c(Cl)c1)N1CCN(CCO)[C@@H]2COC[C@H](N3CCCC3)[C@H]21` (relative stereo) has an Emax of 89% (OPRK1 (Homo sapiens, UniProt P41145); agonist; 0.3333 h).
`O=C1NC(=O)c2c1c1cc(F)c[n+]3c1c1c2c2cc(O)ccc2[n]1[Ru-4]312([N]=C=S)[S+]3CC[S+]1CC[S+]2CC3` (stereo not drawn) gave a remaining activity of 93% (TEK (Homo sapiens, UniProt Q02763, R849W); enzyme activity; 100 nM, human enzyme, added: 10 µM ATP; baseline: untreated).
The kcat of `N[C@H](C(=O)N1CCCC1)C1CCN(c2nccc3c(-c4ncc(Cl)cc4Cl)cccc23)CC1` is reported as 0.392 s⁻¹ and 0.41 s⁻¹ (PADI4 (Homo sapiens, UniProt Q9UM07); enzyme activity; 0.03932 µM, added: Ca2+ 0.25 mM).
`O=C1NC2(CC2)COc2ncc(F)cc2[C@H]2COCCN2c2ccn3ncc1c3n2` — result for “organ-to-body weight ratio”: 0.18 ± 0.027% (Sprague-Dawley rat, female, thymus; oral, 2.5 mg/kg/day, 4 weeks, end of treatment).
The tissue uptake of `N=C(N)NCCC[C@@H]1NC(=O)[C@H](CCCCNC(=O)CCC(NC(=S)Nc2ccc(CC3CN(CC(=O)O)CCN(CC(=O)O)CCN(CC(=O)O)CCN3CC(=O)O)cc2)C(=O)NCCCC[C@@H]2NC(=O)[C@@H](Cc3ccc(O)cc3)NC(=O)[C@H](CC(=O)O)NC(=O)CNC(=O)[C@H](CCCNC(=N)N)NC2=O)NC(=O)[C@@H](Cc2ccc(O)cc2)NC(=O)[C@H](CC(=O)O)NC(=O)CNC1=O` (stereo partly drawn) [scandium-44 labelled] is reported as 0.058 ± 0.007 %ID/g (ex vivo γ-counting; female athymic nude mice, U-87 MG xenograft, lung; intravenous, 4 h, added: cRGD 50 mg/kg blocking).
With `C#CCCCCOc1ccc2c(c1)CCCN2C(=O)CCl` the reactivity ratio was 1.43 (AIFM1 (Homo sapiens, UniProt O95831); mass spectrometry profiling; H460 cell lysate; 100 µM over 10 µM, UniProt O95831; baseline: high over low concentration).
`CC(C)[C@H]1NC(=O)C[C@H]2/C=C/CCSSC[C@@H](NC1=O)C(=O)N[C@H](Cc1cccc3ccccc13)C(=O)NCC(=O)O2` has an inhibition of -2.7% (CAMK2G (Homo sapiens, UniProt Q13555); enzyme activity, inhibitor; 10 µM).
Under “cell cycle distribution”, `Cc1cc(C(=O)Nc2nc3cccc(C)c3n2[C@H]2CCCCN(C(=O)/C=C/CN(C)C)C2)ccn1` is recorded as 5.2% and 3.8% and 4.5% (Trypanosoma brucei; propidium iodide flow cytometry, measured: SubG0 phase; bloodstream parental line; concentration not given).
Under “maximum metastasis uptake”, `CC[C@H](C)[C@H](NC(=O)[C@H](CO)NC(=O)[C@H](Cc1ccc(O)cc1)NC(=O)[C@H](Cc1ccc(O)cc1)NC(=O)[C@H](CC(N)=O)NC(=O)CNC(=O)[C@H](CO)NC(=O)[C@H](Cc1ccc(O)cc1)NC(=O)[C@H](CO)NC(=O)[C@H](CO)NC(=O)[C@H](CC(N)=O)NC(=O)COCCOCCNC(=O)CN1CCN(CC(=O)O)CCN(CC(=O)O)CCN(CC(=O)O)CC1)C(=O)N[C@@H](CC(C)C)C(N)=O` [copper-64 labelled] is recorded as 22.9 %IA/cc (dynamic PET; tamoxifen-induced PDAC mouse model, metastases; 4.5 min, CLDN4-expressing tumours).
With `CS(C)(=O)=Nc1ccc(-c2ccc(-c3nc4cc(O[C@@H]5CO[C@H]6[C@@H]5OC[C@H]6O)[nH]c4cc3F)cc2)cc1` the inhibition was 1% (SIK1 (Homo sapiens, UniProt P57059); enzyme activity, inhibitor; 10 µM).
Under “isoTOP-ABPP competition ratio”, `CCCCCC=CC=C1C(=O)C=CC1CC=CCCCC(=O)O` (stereo not drawn) is recorded as 3.7 (60 kDa heat shock protein, mitochondrial (Homo sapiens, UniProt P10809); competitive isoTOP-ABPP, measured: HSPD1 cysteine peptide; proteome, soluble, MDA-MB-231; 100 µM, added: iodoacetamide probe; baseline: DMSO over compound-treated, higher = stronger cysteine blockade).
`O=C(N[C@@H]1c2ccccc2C[C@H]1N1CCCC1)c1ccc(-c2ccnc3[nH]ccc23)nc1` has a remaining binding of 0.8% (NUAK1 (Homo sapiens, UniProt O60285); binding, competition with immobilised ligand; 3 µM).
The inhibition of `CN(C)[C@H]1C[C@@]23CC[C@@]4(O2)C(=CC[C@]2(C)[C@@H](c5ccc6ccncc6c5)CC[C@H]24)C=C3[C@@H](O)[C@@H]1O` is reported as -15.9% (PTK2 (Homo sapiens, UniProt Q05397); ATP probe labelling, inhibitor, KiNativ profiling; 0.1 µM).
